Published values pooled from the literature.
Lines come from different studies, so protocols differ. Values joined by “and” are separate records of one study, mostly repeats; a detail may differ.

C=C(NC(=O)c1csc(-c2nc3c(cc2O)-c2nc(cs2)C(=O)NC(C(C)O)C(=O)NC(=C(C)OC)c2nc(cs2)C(=O)NC2c4nc(cs4)C(=O)NC(COC(=O)c4c5c6c(cccc6n4O)COC(=O)C(OC4CC(C)(O)C(N(C)C)C(C)O4)C2OC5)c2nc-3cs2)n1)C(N)=O (stereo not drawn)  lung bacterial load (Streptococcus pneumoniae; -25, immunocompromised mice, lung; 4 mg/kg/day thrice daily, 24 h post-dose): 5.48 log10 CFU/lung
CO[C@@H]1[C@@H](OC(N)=O)[C@@H](O)[C@H](Oc2ccc3c(O)c(NC(=O)c4ccc(O)c(CC=C(C)C)c4)c(=O)oc3c2C)OC1(C)C  colony count (HCT-116 BRCA2-/-; 300 µM, replicate 2): 0.1
Nc1ncc(-c2cc(-c3cnn(CC(F)(F)F)c3)ncc2F)nc1C(=O)NC1CNCC(F)C1 (stereo not drawn)  remaining binding (BUB1; KINOMEscan; 1 µM; relative to: DMSO control): 100%
Cn1ncc2cc(-c3cncc(Cl)c3N3CCC4(CCNC4=O)CC3)ccc21  log2 fold change (LS174T; gene expression, microarray, item: TRIM31 mRNA; concentration not given, 4 h; relative to: untreated cells): -1.54
C=CC(=O)Nc1cccc(Cn2ncc3cnc(Nc4cnn(CCOC)c4)nc32)c1  percent of control (NDR1 human; binding, KINOMEscan; 100 nM; lower = stronger binding): 100%
CNS(=O)(=O)Nc1nccc(Cc2c(C)c3ccc(Oc4ncccc4F)cc3oc2=O)c1F  IC50 (OCI-AML-3; cell viability; 7 days): 1.42 nM
Cc1ncsc1-c1ccc(C(C)NC(=O)C2CC(O)CN2C(=O)C(NC(=O)CCCCCCCCCCN2CCCC(Nc3ncc(Cl)c(Nc4ccccc4S(=O)(=O)C(C)C)n3)C2)C(C)(C)C)cc1 (stereo not drawn)  log2 fold change (22Rv1; RNA-seq, item: SLC16A13 mRNA; concentration not given; relative to: DMSO): -3.25
C=C[C@]1(C)C[C@@H](OC(=O)CSc2ccc(NC(=O)c3ccco3)cc2)[C@]2(C)[C@H](C)CC[C@]3(CCC(=O)[C@H]32)[C@@H](C)[C@@H]1O  EC50 of AUC24h/MIC (Mycoplasma gallisepticum; sigmoid Emax model; infected chickens): 7530 h
COC1CN([C@H]2CC[C@H]([C@@]3(C)Oc4c(Cl)cc(C(=O)NCc5c(SC)cc(C)[nH]c5=O)c(C)c4O3)CC2)C1  log2 fold change (RNA-seq, item: PRDM16; human, whole blood; dose not given, 24 h; relative to: pretreatment baseline): 2.7
CN1CCCNC(=O)c2cccc(c2)C(=O)NCCCN(C)CCCNc2cccc3c2C(=O)c2cccc(c2C3=O)NCCC1  log2 fold change (SAS; RNA-Seq, item: PITPNC1 mRNA; 1 µM, 6 h; relative to: untreated cells): 1.89
CC(C)c1ccc(N(C)c2ccc3c(c2)OCC[C@H]3CNc2cnccc2C(=O)O)cc1  IC50 (HCC1954; cell growth or viability, ATP luminescence; 7 days): 40.6 nM
N=C(N)NCCC[C@@H]1NC(=O)[C@H](CCCNC(=N)N)NC(=O)[C@@H](CCCNC(=N)N)NC(=O)[C@@H](CCCNC(=N)N)NC(=O)[C@@H](C(c2ccccc2)c2ccccc2)NC(=O)[C@H](Cc2c[nH]c3ccccc23)NC(=O)[C@@H](C(c2ccccc2)c2ccccc2)NC1=O  reduction of viable cells (Candida albicans; ATCC 60193; MIC, 12 h): > 65%
Cc1cccc2c1N(C(=O)n1ccnn1)CC2  germination rate (Arabidopsis thaliana; wild type, seeds; 3 µM, high ambient temperature): 78% and 7.5% and 6.5% and 74.1% and 2.3% and 2.9%
C=CC(=O)N1[C@H](c2ccc3c(c2)OCO3)c2[nH]c3ccccc3c2C[C@@H]1C(=O)N1CCN(C)CC1  relative co-enrichment (human cyclin E1 N112C-3xFLAG:CDK2; co-IP with TMT proteomics, item: SAMHD1; concentration not given, Q9Y3Z3; relative to: wild type DMSO): 61%
CCN(CC)CC(=O)Nc1cccc(-n2cc(-c3ccc4ccc(-c5cn(-c6cccc(NC(=O)CN(CC)CC)c6)nn5)cc4c3)nn2)c1  fold regulation (RCC4; PCR angiogenesis array, item: THBS1; 5 x IC50, 6 h, normoxia; relative to: untreated): -1.36 fold

Repeated from above:
Cc1cccc2c1N(C(=O)n1ccnn1)CC2  germination rate (Arabidopsis thaliana; wild type, seeds; 3 µM, high ambient temperature): 78% and 7.5% and 6.5% and 74.1% and 2.3% and 2.9%
